# Measured values gathered from unrelated publications.
# A part holds a random share of what one study measured. pKd, pKi: −log10 of the molar value.
# UniProt Q5BJF2, sequence (whole entry, looked up): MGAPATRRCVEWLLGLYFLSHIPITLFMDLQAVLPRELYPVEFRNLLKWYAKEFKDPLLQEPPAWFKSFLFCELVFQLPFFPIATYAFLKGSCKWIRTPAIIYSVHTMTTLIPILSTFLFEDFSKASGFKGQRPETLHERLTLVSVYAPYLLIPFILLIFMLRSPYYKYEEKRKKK
# UniProt O43293, sequence (whole entry, looked up): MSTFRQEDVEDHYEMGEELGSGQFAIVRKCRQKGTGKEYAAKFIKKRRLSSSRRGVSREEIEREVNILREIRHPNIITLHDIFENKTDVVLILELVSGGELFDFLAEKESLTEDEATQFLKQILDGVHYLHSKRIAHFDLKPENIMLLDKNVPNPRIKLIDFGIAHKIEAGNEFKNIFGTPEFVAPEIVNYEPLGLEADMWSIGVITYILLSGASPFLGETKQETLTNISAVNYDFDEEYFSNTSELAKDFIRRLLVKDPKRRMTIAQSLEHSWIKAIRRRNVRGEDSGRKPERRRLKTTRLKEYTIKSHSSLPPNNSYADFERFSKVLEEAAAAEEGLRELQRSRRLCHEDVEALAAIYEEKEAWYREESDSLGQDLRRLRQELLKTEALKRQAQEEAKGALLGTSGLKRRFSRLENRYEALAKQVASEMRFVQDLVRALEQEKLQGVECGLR
# UniProt Q2M2I8, sequence (whole entry, looked up): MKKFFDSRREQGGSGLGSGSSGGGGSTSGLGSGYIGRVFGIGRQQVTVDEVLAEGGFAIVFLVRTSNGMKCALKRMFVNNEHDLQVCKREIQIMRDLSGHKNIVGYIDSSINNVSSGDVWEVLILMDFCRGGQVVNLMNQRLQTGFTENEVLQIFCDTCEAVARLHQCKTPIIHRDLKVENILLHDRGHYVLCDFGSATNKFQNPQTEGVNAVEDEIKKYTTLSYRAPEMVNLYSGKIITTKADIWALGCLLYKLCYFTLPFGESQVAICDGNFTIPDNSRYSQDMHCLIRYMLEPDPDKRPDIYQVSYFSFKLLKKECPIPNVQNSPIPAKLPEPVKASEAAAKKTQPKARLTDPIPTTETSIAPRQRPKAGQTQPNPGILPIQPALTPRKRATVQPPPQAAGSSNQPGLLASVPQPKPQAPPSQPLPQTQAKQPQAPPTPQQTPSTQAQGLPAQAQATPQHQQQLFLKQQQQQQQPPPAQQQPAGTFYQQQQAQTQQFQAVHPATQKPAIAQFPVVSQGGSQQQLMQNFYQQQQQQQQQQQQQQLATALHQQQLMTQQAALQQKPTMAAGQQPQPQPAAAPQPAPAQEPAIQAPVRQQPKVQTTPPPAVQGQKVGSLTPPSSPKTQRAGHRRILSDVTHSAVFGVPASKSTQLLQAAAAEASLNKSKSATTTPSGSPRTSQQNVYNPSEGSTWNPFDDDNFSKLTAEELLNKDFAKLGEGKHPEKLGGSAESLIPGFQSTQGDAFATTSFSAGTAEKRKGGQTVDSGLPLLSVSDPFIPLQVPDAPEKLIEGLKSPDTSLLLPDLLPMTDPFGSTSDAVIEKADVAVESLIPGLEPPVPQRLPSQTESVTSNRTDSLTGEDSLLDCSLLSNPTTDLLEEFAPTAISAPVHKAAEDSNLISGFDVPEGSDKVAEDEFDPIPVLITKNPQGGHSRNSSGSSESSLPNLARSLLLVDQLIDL

# Series 1
# Organism: Sarcocystis neurona
# Observed: parasite growth
# Tested at: concentration not given
# Notes: secondary screen
Structure (SMILES),inhibition
CC1=C(C(=O)O)N2C(=O)[C@@H](NC(=O)[C@H](N)c3ccccc3)[C@H]2SC1.O,-16.1%
CC[C@@H](CO)NCCN[C@@H](CC)CO,-25.1%
Nc1nc(=O)[nH]cc1F,-1.5%
C[N+]1(C)CCCC(OC(=O)C(O)(c2ccccc2)c2ccccc2)C1.[Br-] (stereo not drawn),-14.9%
NC(=O)OCC(COC(N)=O)c1ccccc1.O,-25.7%
Cl.c1ccc2c(c1)CCCC2C1=NCCN1 (stereo not drawn),-24.2%
CCC(C)(C)N=C(NC#N)Nc1cccnc1,-18%
O=C1c2c(O)cc(O)cc2OC(c2ccc(O)c(O)c2)C1O (stereo not drawn),-15.4%
Cl.NC(N)=NC(=O)c1nc(Cl)c(N)nc1N.O,-18.9%
Cl.Cn1c(NCCN(CCO)CCCc2ccc([N+](=O)[O-])cc2)cc(=O)n(C)c1=O,-32.7%

# Series 2
# Target: Calcium/calmodulin-dependent protein kinase type II subunit alpha (CAMK2A, Homo sapiens, UniProt Q9UQM7)
# UniProt Q9UQM7, sequence (whole entry, looked up): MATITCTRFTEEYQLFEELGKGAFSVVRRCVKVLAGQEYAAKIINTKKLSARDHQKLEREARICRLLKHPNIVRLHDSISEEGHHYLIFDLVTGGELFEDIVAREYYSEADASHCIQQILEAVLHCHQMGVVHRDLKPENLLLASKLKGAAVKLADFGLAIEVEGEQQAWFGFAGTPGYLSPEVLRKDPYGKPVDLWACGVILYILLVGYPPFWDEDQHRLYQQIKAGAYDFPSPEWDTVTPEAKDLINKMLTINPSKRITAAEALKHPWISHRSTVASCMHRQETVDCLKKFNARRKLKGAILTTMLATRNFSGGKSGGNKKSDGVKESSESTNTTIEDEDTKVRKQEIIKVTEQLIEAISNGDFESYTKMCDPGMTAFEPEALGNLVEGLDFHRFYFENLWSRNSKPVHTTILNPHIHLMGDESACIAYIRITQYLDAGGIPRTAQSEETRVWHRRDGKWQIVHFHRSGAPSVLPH
# Observed: enzyme activity
# Mode: inhibitor
# Tested at: 10 µM
Structure (SMILES),inhibition [%]
CC[C@]1(O)C[C@@H]2CN(CCc3c([nH]c4ccccc34)[C@@](C(=O)OC)(c3cc4c(cc3OC)N(C)[C@H]3[C@@](O)(C(=O)OC)[C@H](OC(C)=O)[C@]5(CC)C=CCN6CC[C@]43[C@@H]65)C2)C1,-8
COc1cc(C)c(/C=C/C(C)=C/C=C/C(C)=C/C(=O)O)c(C)c1C,-23
CCOC(=O)/C=C/c1ccc(O)cc1,20
CCCCCC(C)C(=O)O (stereo not drawn),-21
Oc1ccc(C2CNCCc3c2cc(O)c(O)c3Cl)cc1 (stereo not drawn),6
CCCCCCCCCC(=O)OCCN1CCN(CCCN2c3ccccc3Sc3ccc(C(F)(F)F)cc32)CC1,-13
OC[C@H]1O[C@@H](c2ccc(Cl)c(Cc3ccc(O[C@H]4CCOC4)cc3)c2)[C@H](O)[C@@H](O)[C@@H]1O,4
O=C(O)CCc1ccccc1O,-42

# Series 3
# Target: G protein-coupled receptor kinase 6 (GRK6, Homo sapiens, UniProt P43250)
# UniProt P43250, sequence (whole entry, looked up): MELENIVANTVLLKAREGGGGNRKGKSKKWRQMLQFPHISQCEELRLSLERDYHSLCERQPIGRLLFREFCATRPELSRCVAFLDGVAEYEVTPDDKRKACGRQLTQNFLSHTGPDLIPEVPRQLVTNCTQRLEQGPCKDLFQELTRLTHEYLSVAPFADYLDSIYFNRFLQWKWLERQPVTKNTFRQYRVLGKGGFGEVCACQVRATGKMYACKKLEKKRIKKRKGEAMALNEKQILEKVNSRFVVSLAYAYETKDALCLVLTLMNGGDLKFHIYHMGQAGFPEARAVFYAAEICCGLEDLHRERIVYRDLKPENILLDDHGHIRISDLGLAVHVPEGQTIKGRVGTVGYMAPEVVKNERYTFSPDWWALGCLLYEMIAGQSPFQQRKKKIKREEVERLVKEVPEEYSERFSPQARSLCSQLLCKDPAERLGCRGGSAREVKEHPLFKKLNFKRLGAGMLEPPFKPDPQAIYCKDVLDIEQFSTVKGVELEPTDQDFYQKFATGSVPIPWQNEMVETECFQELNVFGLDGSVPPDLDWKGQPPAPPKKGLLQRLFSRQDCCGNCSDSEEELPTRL
# Observed: enzyme activity
# Mode: inhibitor
# Tested at: 0.5 µM
# Baseline: control
Structure (SMILES),remaining activity [%]
CC#CC(=O)Nc1cc2c(Nc3ccc(F)c(Cl)c3)ncnc2cn1,104
Nc1nccc(-c2c(-c3ccc(F)cc3)ncn2C2CCNCC2)n1,98.2
O=S(=O)(NCCNC/C=C/c1ccc(Br)cc1)c1cccc2cnccc12,93.5
Cc1cncc2cccc(S(=O)(=O)N3CCCN(C(=O)CN)C[C@@H]3C)c12,85.5
O=C1NC(=O)C(c2c[nH]c3ccccc23)=C1c1c[nH]c2ccccc12,101
O=C1Cc2c([nH]c3ccc([N+](=O)[O-])cc23)-c2ccccc2N1,93.8
Fc1ccc(-c2nc3n(c2-c2ccncc2)CCS3)cc1,103
Cc1cc(Nc2nc(-c3ccccc3)nc3ccccc23)n[nH]1,75.8
CC(C)(C)n1nc(Cc2cccc3ccccc23)c2c(N)ncnc21,103
CC[n+]1c(/C=C/N(C)c2ccccc2)n(-c2ccccc2)c2ccc(-c3nc4ccccc4s3)cc21,98.9
N#CC(=C(N)Sc1ccc(N)cc1)c1ccccc1C(F)(F)F,100
Oc1ccc(Nc2nc(-c3ccc(Cl)cc3)cs2)cc1,100
CC(=O)c1ccc(N2CCOCC2)cc1O,100
COc1cc(Nc2c(C#N)cnc3cc(OCCCN4CCN(C)CC4)c(OC)cc23)c(Cl)cc1Cl,99.5
Nc1nc(Nc2ccc(S(N)(=O)=O)cc2)nn1C(=O)c1c(F)cccc1F,77.2
CSc1nc(-c2ccnc(N[C@@H](C)c3ccccc3)c2)c(-c2ccc(F)cc2)[nH]1 (racemic),79.8
Cc1ccc(NC2=CC(=O)c3sc(C)nc3C2=O)cc1,96.8
COc1ccc(S(=O)(=O)N(CCO)c2ccccc2CN(C)CC=Cc2ccc(Cl)cc2)cc1,106
CCCC(=O)Oc1ccc2[nH]c(C(=O)c3cc4ccccc4[nH]3)cc2c1,95.8
Nc1ncnc2c1cnn2-c1ccccc1,92.3
NC(=O)c1ccc(N(C(N)=O)c2c(F)cccc2F)nc1-c1ccc(F)cc1F,97.1

# Other studies, line by line
SMILES,target,test,conditions,endpoint,result
O=C1NC(c2ccccn2)Sc2ccccc21 (stereo not drawn),"Death-associated protein kinase 3 (DAPK3, Homo sapiens, UniProt O43293)","binding, competition with immobilised ligand",,pKd,< 5.00
Cn1cncc1[C@](O)(COc1ccc(C#N)cc1-c1ccc(OC(F)(F)F)cc1)c1ccc(C#N)cc1,"AP2-associated protein kinase 1 (AAK1, Homo sapiens, UniProt Q2M2I8)",binding,1 µM,remaining binding,87%
C[C@H](c1cccc(C#N)c1)n1cc(Cl)cc(C(N)=O)c1=N,"Sigma intracellular receptor 2 (TMEM97, Homo sapiens, UniProt Q5BJF2)","binder, radioligand binding",,pKi,5.35

# For quick reference, copied from above (series 2):
Structure (SMILES),inhibition [%]
O=C(O)CCc1ccccc1O,-42
Oc1ccc(C2CNCCc3c2cc(O)c(O)c3Cl)cc1 (stereo not drawn),6
CCCCCC(C)C(=O)O (stereo not drawn),-21
